Published values pooled from the literature.
Each line is one published result; not all experiments were run side by side. Numbers after ± are the reported error.

COc1ccc(/C=C\C(=O)OC2CC3(C)C(CC(O)C4C(C5(C)CCCC(C)(C)O5)CCC43C)C3(C)CCC(O)C(C)(C)C23)cc1 (stereo not drawn) gave an IC50 of over 30 µM (Hep3B; cell growth or viability, MTT; 24 h).
With COC(=O)NC(C(=O)NN(Cc1ccc(-c2ccccc2)cc1)CC(O)(Cc1ccccc1)C(=O)NC1c2ccccc2CC1O)C(C)(C)C (stereo not drawn) the Papp A-to-B was 80.8 ± 6.6 ×10⁻⁶ cm/s (Caco-2; pH 7.4, 1% BSA in receiver).
The IC50 of CC1(C)CCCC(C)(C2CCC3(C)C2C(O)CC2C4(C)CCC(OC(=O)C=Cc5ccccc5)C(C)(C)C4C(OC(=O)C=Cc4ccccc4)CC23C)O1 (stereo not drawn) is reported as over 30 µM (Hep3B; cell growth or viability, MTT; 24 h).
The IC50 of CN(C)C(=O)C1CN1S(=O)(=O)c1ccc2c(N(C)C)cccc2c1 (stereo not drawn) is reported as 13 ± 1 µM (Balb/c 3T3 fibroblasts; cytotoxicity, neutral red uptake; DMEM with 5% FBS; 24 h).
Nc1ncnc2c1c(F)cn2[C@@H]1O[C@H](CO)C[C@H]1O has an EC50 of 3.56 ± 0.8 µM (MRC-5 SV2; cytotoxicity, resazurin; medium with 5% FBS; 72 h).
COc1cc(CN2CCN(c3ccc(OC(F)(F)F)cc3)CC2)c2cc3[n+](cc2c1O)CCc1cc2c(cc1-3)OCO2 gave a CC50 of 159 µg/mL (MDCK; cell growth or viability, SRB; 48 h).
For CN(C)C(=O)C1CN1S(=O)(=O)c1cccc2cc(N(C)C)ccc12 (stereo not drawn), the IC50 was 22 ± 2 µM (Balb/c 3T3 fibroblasts; cytotoxicity, neutral red uptake; DMEM with 5% FBS; 24 h).
For COc1ccc(-c2coc3c(CC=C(C)C)c(O)c(CC=C(C)C)c(O)c3c2=O)cc1O, the viability was 132% (RAW264.7; cell growth or viability, MTT; 12.5 µg/mL, 24 h).
Under “compound fluorescence-only positive cells”, CCCN(CC(=O)N(CCC)CC(=O)N(CCC)CC(=O)N(CCC)CC(=O)N(CC(=O)N(CCC)CC(=O)N(CCC)CC(=O)N(CCC)CC(=O)N(CCC)CC(=O)N(CC(=O)N(CCC)CC(=O)N(CCC)CC(=O)N(CCC)CC(=O)N(CCC)CC(=O)N(CC(N)=O)Cc1cn(CCCNC(=O)CCCOc2cccc(-c3nc4ccc(-c5nc6ccc(N7CCN(C)CC7)cc6[nH]5)cc4[nH]3)c2)nn1)Cc1cn(CCCNC(=O)CCCOc2cccc(-c3nc4ccc(-c5nc6ccc(N7CCN(C)CC7)cc6[nH]5)cc4[nH]3)c2)nn1)Cc1cn(CCCNC(=O)CCCOc2cccc(-c3nc4ccc(-c5nc6ccc(N7CCN(C)CC7)cc6[nH]5)cc4[nH]3)c2)nn1)C(=O)CNCc1cn(CCCNC(=O)CCCOc2cccc(-c3nc4ccc(-c5nc6ccc(N7CCN(C)CC7)cc6[nH]5)cc4[nH]3)c2)nn1 is recorded as 90% (C2C12; flow cytometry; 5 µM, 48 h).
Under LDH release, CN1CCc2cc(Nc3ncc(C(F)(F)F)c(NCc4cc[nH]n4)n3)ccc2C1 is recorded as “increased” (GL261; 3 µM, 72 h).
With COc1ccc(Nc2c(C#N)cnc3ccc(Cl)cc23)cc1 the CC50 was over 100 µM (mouse primary embryonic cardiomyocytes; resazurin; 72 h, with: 30 µM heme).
With CC[C@H](C)[C@H](NC(=O)[C@H](C)NC(=O)CNC(=O)[C@H](Cc1ccccc1)NC(=O)[C@H](CC(N)=O)NC(=O)[C@H](CC(N)=O)NC(=O)[C@H](CO)NC(=O)[C@H](CO)NC(=O)[C@H](Cc1c[nH]cn1)NC(=O)[C@@H](NC(=O)[C@H](CC(C)C)NC(=O)[C@H](Cc1ccccc1)NC(=O)[C@H](CC(N)=O)NC(=O)[C@H](C)NC(=O)[C@H](CC(C)C)NC(=O)[C@H](CCCNC(=N)N)NC(=O)[C@H](CCC(N)=O)NC(=O)[C@@H](NC(=O)[C@H](C)NC(=O)[C@@H]1CSSC[C@H](NC(=O)[C@@H](N)CCCCN)C(=O)N[C@@H](CC(N)=O)C(=O)N[C@@H]([C@@H](C)O)C(=O)N[C@@H](C)C(=O)N[C@@H]([C@@H](C)O)C(=O)N1)[C@@H](C)O)C(C)C)C(=O)N[C@@H](CC(C)C)C(=O)N[C@@H](CO)C(=O)N[C@@H](CO)C(=O)N[C@H](C(=O)N[C@@H](CC(N)=O)C(=O)N[C@H](C(=O)NCC(=O)N[C@@H](CO)C(=O)N[C@@H](CC(N)=O)C(=O)N[C@H](C(=O)N[C@@H](Cc1ccc(O)cc1)C(N)=O)[C@@H](C)O)C(C)C)[C@@H](C)O the viability was 14 ± 9% (INS-1; AlamarBlue; 42 µM, 24 h; reference: medium alone).

For quick reference, copied from above:
Nc1ncnc2c1c(F)cn2[C@@H]1O[C@H](CO)C[C@H]1O has an EC50 of 3.56 ± 0.8 µM (MRC-5 SV2; cytotoxicity, resazurin; medium with 5% FBS; 72 h).
